Measured values from different studies.
A part holds a random share of what one study measured.
Chain of UniProt O95819 (whole entry, looked up): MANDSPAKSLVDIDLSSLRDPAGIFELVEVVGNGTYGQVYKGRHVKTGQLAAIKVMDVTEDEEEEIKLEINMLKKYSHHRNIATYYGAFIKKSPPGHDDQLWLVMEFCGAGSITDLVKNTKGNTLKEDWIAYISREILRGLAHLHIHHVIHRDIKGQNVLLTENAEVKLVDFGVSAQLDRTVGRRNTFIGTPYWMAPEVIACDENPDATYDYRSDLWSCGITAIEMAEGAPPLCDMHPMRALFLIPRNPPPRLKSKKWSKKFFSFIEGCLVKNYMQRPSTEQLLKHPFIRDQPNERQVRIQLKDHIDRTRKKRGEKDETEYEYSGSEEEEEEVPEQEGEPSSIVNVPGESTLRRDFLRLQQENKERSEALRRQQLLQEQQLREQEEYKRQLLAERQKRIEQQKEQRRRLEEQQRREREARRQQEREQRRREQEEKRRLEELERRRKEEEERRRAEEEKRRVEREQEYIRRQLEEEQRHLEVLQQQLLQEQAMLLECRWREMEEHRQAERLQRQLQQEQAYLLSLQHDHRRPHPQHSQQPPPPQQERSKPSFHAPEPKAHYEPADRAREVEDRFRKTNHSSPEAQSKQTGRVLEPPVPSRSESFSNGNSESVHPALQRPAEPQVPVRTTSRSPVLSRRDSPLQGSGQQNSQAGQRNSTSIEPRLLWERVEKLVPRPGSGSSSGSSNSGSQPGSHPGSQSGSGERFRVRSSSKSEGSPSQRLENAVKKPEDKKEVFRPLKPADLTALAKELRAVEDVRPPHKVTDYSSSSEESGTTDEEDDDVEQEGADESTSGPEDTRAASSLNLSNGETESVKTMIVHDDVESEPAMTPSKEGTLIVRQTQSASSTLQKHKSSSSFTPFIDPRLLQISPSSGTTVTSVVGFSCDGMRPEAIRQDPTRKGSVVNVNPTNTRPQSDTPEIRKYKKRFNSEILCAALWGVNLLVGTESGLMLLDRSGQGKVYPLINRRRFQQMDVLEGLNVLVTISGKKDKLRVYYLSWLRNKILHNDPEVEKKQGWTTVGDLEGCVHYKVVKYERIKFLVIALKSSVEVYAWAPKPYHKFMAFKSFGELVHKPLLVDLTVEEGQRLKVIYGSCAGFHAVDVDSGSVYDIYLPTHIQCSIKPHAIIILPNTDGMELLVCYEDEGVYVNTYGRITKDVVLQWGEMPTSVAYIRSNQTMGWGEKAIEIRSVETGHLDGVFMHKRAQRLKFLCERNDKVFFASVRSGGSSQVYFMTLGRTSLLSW
Chain of UniProt Q16620 (whole entry, looked up): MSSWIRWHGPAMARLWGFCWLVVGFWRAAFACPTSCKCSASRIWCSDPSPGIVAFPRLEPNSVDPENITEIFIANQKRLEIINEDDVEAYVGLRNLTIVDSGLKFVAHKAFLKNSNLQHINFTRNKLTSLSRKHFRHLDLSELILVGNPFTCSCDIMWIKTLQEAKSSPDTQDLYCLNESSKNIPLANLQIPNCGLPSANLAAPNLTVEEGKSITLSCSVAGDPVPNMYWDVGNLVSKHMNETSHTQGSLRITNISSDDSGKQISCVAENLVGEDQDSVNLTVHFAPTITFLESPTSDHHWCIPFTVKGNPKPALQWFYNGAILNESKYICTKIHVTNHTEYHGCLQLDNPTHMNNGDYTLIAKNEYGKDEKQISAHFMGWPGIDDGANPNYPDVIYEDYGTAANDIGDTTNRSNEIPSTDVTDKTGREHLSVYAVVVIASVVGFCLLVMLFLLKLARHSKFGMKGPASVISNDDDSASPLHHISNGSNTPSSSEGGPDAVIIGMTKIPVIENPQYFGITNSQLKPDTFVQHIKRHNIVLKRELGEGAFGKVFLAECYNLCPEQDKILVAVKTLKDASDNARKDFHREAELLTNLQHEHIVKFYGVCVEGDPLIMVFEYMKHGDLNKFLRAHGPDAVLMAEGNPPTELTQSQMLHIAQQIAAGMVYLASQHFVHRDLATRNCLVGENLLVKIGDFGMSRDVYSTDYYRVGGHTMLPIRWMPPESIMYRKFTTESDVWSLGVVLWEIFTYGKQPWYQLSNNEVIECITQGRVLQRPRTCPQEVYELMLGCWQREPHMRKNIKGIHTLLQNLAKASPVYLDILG

Study 1 — method: protein-binding microarray; form: double-stranded DNA, one strand shown; medium: in vitro; tested at: not given; reading: higher = stronger binding
Target: Transcriptional repressor CTCF (CTCF, Homo sapiens, UniProt P49711, residues 1-727, full length assumed)
Setting: k-mer, scored over probes, only values ≥0.25
Construct (chain): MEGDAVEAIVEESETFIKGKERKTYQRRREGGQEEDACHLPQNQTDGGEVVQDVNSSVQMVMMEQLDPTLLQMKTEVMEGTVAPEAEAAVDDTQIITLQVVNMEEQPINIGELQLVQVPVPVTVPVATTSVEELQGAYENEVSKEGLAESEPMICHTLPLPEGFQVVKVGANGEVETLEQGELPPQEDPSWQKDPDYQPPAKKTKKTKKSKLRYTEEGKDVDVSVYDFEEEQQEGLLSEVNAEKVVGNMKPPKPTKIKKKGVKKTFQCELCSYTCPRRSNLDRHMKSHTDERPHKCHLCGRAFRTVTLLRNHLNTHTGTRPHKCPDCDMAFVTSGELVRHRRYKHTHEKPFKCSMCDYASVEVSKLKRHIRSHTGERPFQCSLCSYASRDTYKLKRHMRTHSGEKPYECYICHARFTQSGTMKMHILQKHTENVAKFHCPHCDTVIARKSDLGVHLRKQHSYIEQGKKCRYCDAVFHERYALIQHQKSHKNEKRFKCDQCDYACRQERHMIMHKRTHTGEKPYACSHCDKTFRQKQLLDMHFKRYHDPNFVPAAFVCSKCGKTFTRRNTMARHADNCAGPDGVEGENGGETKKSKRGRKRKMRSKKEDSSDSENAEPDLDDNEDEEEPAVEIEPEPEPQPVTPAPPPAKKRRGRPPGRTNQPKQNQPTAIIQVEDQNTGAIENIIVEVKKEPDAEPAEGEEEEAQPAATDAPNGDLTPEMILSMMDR
Oligonucleotide | E-score
GCGCAAGA | 0.277
ATACAAAT | 0.352
ATATATGG | 0.393
TTATACAA | 0.252
CGATTATA | 0.255
AATAACAC | 0.294
ATTAACTC | 0.256
ATGTTACA | 0.266

Study 2 — method: RNA Bind-n-Seq; form: RNA; medium: in vitro; tested at: 365 nM; relative to: no-protein control; reading: higher = stronger binding
Target: RNA binding protein fox-1 homolog 2, RRM domain, GST-SBP tag (RBFOX2, Homo sapiens, UniProt O43251-10, residues 100-194)
Setting: natural RNA segment, single round, ends assumed
Constant ends, left off below: GGGAGUUCUACAGUCCGACGAUC … UGGAAUUCUCGGGUGCCAA
Target sequence (chain): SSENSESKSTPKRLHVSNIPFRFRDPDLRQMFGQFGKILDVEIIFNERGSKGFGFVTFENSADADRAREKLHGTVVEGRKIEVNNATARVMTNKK
Oligonucleotide | RBNS enrichment (R)
CAGGUGCCUUUUGGACAGUUGUGCUGAGCCUGGCAUCACAGACACCAGCAUGCACUUCAGGAUCAUUAGUGUAUUUAGAAUCUGUAAAAAUAAUAAAUAUGUUUGAAACA | 0.644
GCCUGGGACAUCGCUGGAACCUGCACCAUGCCAGGAUCAUGGGACCAGGCGAGAGGGCACCCUCCCUUCCUCCCCCAUGUGAUAAAUGGGUCCAGGGCUGAUCAAAGAAC | 0.324
CGUCCUUGCAUUCCGCUGGCUGACCUGUUAGACCUGUCCUUGUGAAUGCCACCGUUUCCUCUAAGACUGGCCAUUAAUGUUUCGUCGGCGGAAGUCGCUCUCCUGGGAGG | 0.367
GAGAAAGCAUGUCAGGACAGAGCUGUUGGAUUGGCUUUGAUAGAGGAAUGGGGAUGAUGUAAGUUUACAGUAUUCCUGGGGUUUAAUUGUUGUGCAGUUUCAUAGAUGGG | 6.46
UAUAAUUUAAGGUAUUUAUGUUCUUCUCUGUGAGAAGGUUUAUUGUUAAUACAAGGUAUAAAAAACACAUGAUAUGCCCUCUCCUGCCAAUAUAACCAGCUAAUAUUGUC | 0.416
CGGCGAUUCUAAUGGGAUUGACUGACUGGAGACCUCACAUCAUGUUCACAUUUAACCUUAAACACCUAUGCAGUCAUGUUGGGGGAGUGUCCCAAUGUUACCUCAACACC | 0.416
UCCGCCACCAGCGGACCCACGCAGCCGGCCGCCGUUAACCAGUCACGGGUGGGGAGGUGGUGUGCAGAAGAGAUGGGGUCAAGGAAUUUAUGGAUAGAGGAAAAGCUGGU | 0.677
CUUCUCUGGACUAGAGAGAAGAGGGAGAGGACUGGAAGGGAUCACCAAAUCUCAAAGCAAUGAGAAGCAUUCCUAAAUCCCAAAGUGCCCACAUGGGAAAGAGAUAAAAU | 0.248

Other studies, line by line
SMILES | target | assay | conditions | scale | measurement | value
CS(=O)(=O)CCNCc1ccc(-c2ccc3ncnc(Nc4ccc(OCc5cccc(F)c5)c(Cl)c4)c3c2)o1 | NTRK2 (Homo sapiens, UniProt Q16620) | enzyme activity, inhibitor | 0.5 µM | relative to: control | remaining activity | 98.8%
COc1cc(-c2cn(C3CCc4c(F)cccc4N(CC(F)(F)F)C3=O)nn2)ccc1-n1cnc(C)c1 (stereo not drawn) | MAP4K4 (Homo sapiens, UniProt O95819) | binding, competition with immobilised ligand | 1 µM |  | remaining binding | 0%

Repeated from above (study 1):
Oligonucleotide | E-score
ATTAACTC | 0.256
ATGTTACA | 0.266
